Measured values from different studies.
Lines come from different studies, so protocols differ. ± marks the error that the study gave.

| Molecule | test | system | conditions | endpoint | value |
| --- | --- | --- | --- | --- | --- |
| N=C(N)NCCC[C@@H]1NC(=O)[C@H](CCCCNC(=O)[C@H](CC(=O)O)NC(=O)[C@H](CC(=O)O)NC(=O)[C@H](CC(=O)O)NC(=O)CC[C@H](NC(=O)CCOCCOCCOCCOCCNC(=O)c2ccc(NN)nc2)C(=O)N[C@@H](CC(=O)O)C(=O)N[C@@H](CC(=O)O)C(=O)N[C@@H](CC(=O)O)C(=O)NCCCC[C@@H]2NC(=O)[C@@H](Cc3ccccc3)NC(=O)[C@H](CC(=O)O)NC(=O)CNC(=O)[C@H](CCCNC(=N)N)NC2=O)NC(=O)[C@@H](Cc2ccccc2)NC(=O)[C@H](CC(=O)O)NC(=O)CNC1=O [technetium-99m labelled] |  | U-87 MG xenograft athymic nude mice, tumor | intravenous, 60 min, together with: RGD2 14 mg/kg co-injected | tissue uptake | 0.3 ± 0.01 %ID/g |
| melittin | membrane partitioning, CD van't Hoff analysis | POPC/POPG LUVs 50:50% | concentration not given, 5 to 60 °C | heat capacity change | -0.33 kcal/mol/K |
| CSCC[C@H](NC(=O)[C@H](CC(C)C)NC(=O)[C@H](Cc1c[nH]cn1)NC(=O)CNC(=O)[C@@H](NC(=O)[C@H](C)NC(=O)[C@H](Cc1c[nH]c2ccccc12)NC(=O)[C@H](CCC(N)=O)NC(=O)CCC(=O)NCCOCCOCCNC(=O)CN1CCN(CC(=O)O)CCN(CC(=O)O)CCN(CC(=O)O)CC1)C(C)C)C(N)=O |  | ICR SCID mouse (PC-3 tumour), urine and bladder contents | intravenous, 185 kBq, 4 h | excreted dose | 84.8 ± 2.31% |
| CN[C@@](C)(C[18F])C(=O)O |  | SCID mouse SK-OV-3 xenograft, lung | 120 min, post injection | tissue uptake | 0.9 ± 0.1 %ID/g |
| N=C(N)NCCC[C@@H]1NC(=O)[C@H](CCCCNC(=O)CNC(=O)CNC(=O)CNC(=O)CC[C@H](NC(=O)CCOCCOCCOCCOCCNC(=O)c2ccc(NN)nc2)C(=O)NCC(=O)NCC(=O)NCC(=O)NCCCC[C@@H]2NC(=O)[C@@H](Cc3ccccc3)NC(=O)[C@H](CC(=O)O)NC(=O)CNC(=O)[C@H](CCCNC(=N)N)NC2=O)NC(=O)[C@@H](Cc2ccccc2)NC(=O)[C@H](CC(=O)O)NC(=O)CNC1=O [technetium-99m labelled] | γ-counting | female athymic nude mice, U-87 MG xenograft, blood | intravenous, 2 h | tissue uptake | 0.19 ± 0.02 %ID/g |
| CCN1C(=CC=CC=CC2=[N+](CCCCCC(=O)NCCCC[C@H](NC(=O)CN3CCN(CC(=O)O)CCN(CC(=O)O)CCN(CC(=O)O)CC3)C(=O)NCC(=O)NCC(=O)N[C@@H](Cc3ccc(O)cc3)C(=O)NCC(=O)N[C@H]3CSSC[C@@H]4NC(=O)CNC(=O)[C@H](C)NC(=O)[C@H](CC(C)C)NC(=O)[C@@H]5CSSC[C@@H](C(=O)NCC(N)=O)NC(=O)[C@H](Cc6ccccc6)NC(=O)CNC(=O)[C@H](CC(N)=O)NC(=O)[C@@H]6CCCN6C(=O)CNC(=O)[C@H](CSSC[C@H](NC(=O)[C@H](CO)NC(=O)[C@H]([C@@H](C)O)NC(=O)[C@@H]6CCCN6C(=O)[C@H](C)NC(=O)[C@H](Cc6c[nH]c7ccccc67)NC(=O)[C@H](CC(=O)O)NC(=O)CNC(=O)[C@H](CCCNC(=N)N)NC(=O)CNC(=O)[C@H](CCC(N)=O)NC(=O)[C@@H]6CCCN6C3=O)C(=O)N[C@@H](CO)C(=O)N[C@@H](CCC(N)=O)C(=O)N[C@@H](CC(=O)O)C(=O)N[C@@H](CO)C(=O)N[C@@H](CC(=O)O)C(=O)N5)NC(=O)[C@H](C(C)C)NC4=O)c3ccc4c(S(=O)(=O)[O-])cc(S(=O)(=O)O)cc4c3C2(C)C)C(C)(C)c2c1ccc1c(S(=O)(=O)O)cc(S(=O)(=O)O)cc21 (single isomer, unassigned) [copper-64 labelled] | microPET | female athymic nude mouse, U-87 MG xenograft, tumour | intravenous, 100 µCi, 2 h | tumour uptake | 4.19 ± 0.36 %ID/g |
| CC(C)C[C@@H]1NC(=O)[C@@H]2CSSC[C@@H](C(=O)NCC(N)=O)NC(=O)[C@H](Cc3ccccc3)NC(=O)CNC(=O)[C@H](CC(N)=O)NC(=O)[C@@H]3CCCN3C(=O)CNC(=O)[C@@H]3CSSC[C@H](NC(=O)[C@H](CO)NC(=O)[C@H]([C@@H](C)O)NC(=O)[C@@H]4CCCN4C(=O)[C@H](C)NC(=O)[C@H](Cc4c[nH]c5ccccc45)NC(=O)[C@H](CC(=O)O)NC(=O)CNC(=O)[C@H](CCCNC(=N)N)NC(=O)CNC(=O)[C@H](CCC(N)=O)NC(=O)[C@@H]4CCCN4C(=O)[C@@H](NC(=O)CNC(=O)CN4CCN(CC(=O)O)CCN(CC(=O)O)CCN(CC(=O)O)CC4)CSSC[C@H](NC(=O)CNC(=O)[C@H](C)NC1=O)C(=O)N[C@@H](C(C)C)C(=O)N3)C(=O)N[C@@H](CO)C(=O)N[C@@H](CCC(N)=O)C(=O)N[C@@H](CC(=O)O)C(=O)N[C@@H](CO)C(=O)N[C@@H](CC(=O)O)C(=O)N2 [copper-64 labelled] | 64Cu microPET | female nude mice, U-87 MG xenograft, tumour | intravenous, 1 h | tissue uptake | 4.47 ± 1.21 %ID/g |
| CCCCCCCCCCCCCCCCCCSC1CC(=O)N(CCC(=O)NCCOCCOCCOCCOCCOCCOCCOCCOCCOCCOCCOCCOCCOCCOCCOCCOCCOCCOCCOCCOCCOCCOCCOCCOCCC(=O)NC(COCCC(=O)NCCOCCOCCOCCOCCC(=O)NCCCC[C@@H](NC(=O)CNC(=O)[C@@H](CC(C)C)NC(=O)[C@@H](CCC(=O)O)NC(=O)[C@H]2CSSC[C@@H](NC(=O)[C@H]3CCCN3C(=O)[C@@H](Cc3c[nH]cn3)NC(C)=O)C(=O)N[C@H](CC(=O)O)C(=O)N[C@H](Cc3ccc(O)cc3)C(=O)N3CCC[C@@H]3C(=O)N[C@H](CCC(=O)O)C(=O)N[C@H](Cc3c[nH]c4ccccc34)C(=O)N[C@H](CCC(N)=O)C(=O)N[C@H](Cc3c[nH]c4ccccc34)C(=O)N[C@H](CC(C)C)C(=O)N2)C(N)=O)(COCCC(=O)NCCOCCOCCOCCOCCC(=O)NCCCC[C@@H](NC(=O)CNC(=O)[C@@H](CC(C)C)NC(=O)[C@@H](CCC(=O)O)NC(=O)[C@H]2CSSC[C@@H](NC(=O)[C@H]3CCCN3C(=O)[C@@H](Cc3c[nH]cn3)NC(C)=O)C(=O)N[C@H](CC(=O)O)C(=O)N[C@H](Cc3ccc(O)cc3)C(=O)N3CCC[C@@H]3C(=O)N[C@H](CCC(=O)O)C(=O)N[C@H](Cc3c[nH]c4ccccc34)C(=O)N[C@H](CCC(N)=O)C(=O)N[C@H](Cc3c[nH]c4ccccc34)C(=O)N[C@H](CC(C)C)C(=O)N2)C(N)=O)COCCC(=O)NCCOCCOCCOCCOCCC(=O)NCCCC[C@@H](NC(=O)CNC(=O)[C@@H](CC(C)C)NC(=O)[C@@H](CCC(=O)O)NC(=O)[C@H]2CSSC[C@@H](NC(=O)[C@H]3CCCN3C(=O)[C@@H](Cc3c[nH]cn3)NC(C)=O)C(=O)N[C@H](CC(=O)O)C(=O)N[C@H](Cc3ccc(O)cc3)C(=O)N3CCC[C@@H]3C(=O)N[C@H](CCC(=O)O)C(=O)N[C@H](Cc3c[nH]c4ccccc34)C(=O)N[C@H](CCC(N)=O)C(=O)N[C@H](Cc3c[nH]c4ccccc34)C(=O)N[C@H](CC(C)C)C(=O)N2)C(N)=O)C1=O (some centres unmarked) |  | Sprague Dawley rat, plasma | intravenous, 1.0 mg/kg, median, together with: Palm-PIE12-trimer 1.2 mg/kg | C0 | 900 nM |
| KEAEAAEKAFQEAEQRRKEIEREKAETERQLKLAEAEEKRLAALSEEAKA (colicin E1 fragment 141–190) | CD 222/208 nm ratio | peptide, 50 mM sodium phosphate |  | helical content | 75 ± 2% |
| Cc1ccccc1NC(=O)Nc1ccc(CC(=O)N[C@@H](CCCCNC(=O)/C=C/c2cccnc2)C(=O)N[C@@H](CCCC(=O)O)C(=O)NC2(C(=O)NCCOCCOCCOCCOCC(=O)N[C@@H](CCCCNC(=S)Nc3ccc(C[C@H]4CN(CC(=O)O)CCN(CC(=O)O)CCN4CC(=O)O)cc3)C(N)=O)CCCCC2)cc1 [fluorine-18 labelled] |  | female C57BL/6 mice, B16-F10 tumour, bone | intravenous, 0.5 h | tissue uptake | 4.47 ± 0.37 %ID/g |
| COc1cccc2c1C(=O)c1c(O)c3c(c(O)c1C2=O)C[C@@](O)(C(=O)CO)C[C@@H]3O[C@H]1C[C@H](NC(=O)[C@H](CC(C)C)NC(=O)[C@H](C)NC(=O)[C@H](CC(C)C)NC(=O)CCNC(=O)CCC(=O)O)[C@H](O)[C@H](C)O1 |  | mouse, E0771 tumour-bearing, heart | intravenous, 92 µmol/kg | AUC | 15.1 µM·h |
| N=C(N)NCCC[C@@H]1NC(=O)[C@H](CCCCNC(=O)CCOCCOCCOCCOCCNC(=O)CC[C@H](NC(=O)CCOCCOCCOCCOCCNC(=O)c2ccc(NN)nc2)C(=O)NCCOCCOCCOCCOCCC(=O)NCCCC[C@@H]2NC(=O)[C@@H](Cc3ccccc3)NC(=O)[C@H](CC(=O)O)NC(=O)CNC(=O)[C@H](CCCNC(=N)N)NC2=O)NC(=O)[C@@H](Cc2ccccc2)NC(=O)[C@H](CC(=O)O)NC(=O)CNC1=O [technetium-99m labelled] |  | athymic nude mouse, U-87 MG xenograft | 120 min | tumour uptake | 6 to 12.5 %ID/g |
| COc1cccc2c1C(=O)c1c(O)c3c(c(O)c1C2=O)C[C@@](O)(C(=O)CO)C[C@@H]3O[C@H]1C[C@H](NC(=O)[C@@H]2CCCN2C(=O)CNC(=O)[C@H](CC(C)C)NC(=O)[C@H](C)NC(=O)CP(=O)(O)O)[C@H](O)[C@H](C)O1 |  | mouse, E0771 tumour-bearing, liver | intravenous, 92 µmol/kg | Tmax | 5 min |
| CC(=O)N(O)CCCCCNC(=O)CCC(=O)N(O)CCCCCNC(=O)CCC(=O)N(O)CCCCCNC(=S)Nc1ccc(NC(=S)NCCOCCOCCOCCOCCC(=O)N[C@@H](CCC(=O)NCCOCCOCCOCCOCCC(=O)NCCCC[C@@H]2NC(=O)[C@@H](Cc3ccccc3)NC(=O)[C@H](CC(=O)O)NC(=O)CNC(=O)[C@H](CCCNC(=N)N)NC2=O)C(=O)NCCOCCOCCOCCOCCC(=O)NCCCC[C@@H]2NC(=O)[C@@H](Cc3ccccc3)NC(=O)[C@H](CC(=O)O)NC(=O)CNC(=O)[C@H](CCCNC(=N)N)NC2=O)cc1 [zirconium-89 labelled] |  | athymic nude mice female tumour-bearing, kidneys | intravenous, 100 µCi, 4 h | tissue uptake | 5.93 ± 0.93 %ID/g |

For quick reference, copied from above:
| Molecule | test | system | conditions | endpoint | value |
| --- | --- | --- | --- | --- | --- |
| N=C(N)NCCC[C@@H]1NC(=O)[C@H](CCCCNC(=O)CNC(=O)CNC(=O)CNC(=O)CC[C@H](NC(=O)CCOCCOCCOCCOCCNC(=O)c2ccc(NN)nc2)C(=O)NCC(=O)NCC(=O)NCC(=O)NCCCC[C@@H]2NC(=O)[C@@H](Cc3ccccc3)NC(=O)[C@H](CC(=O)O)NC(=O)CNC(=O)[C@H](CCCNC(=N)N)NC2=O)NC(=O)[C@@H](Cc2ccccc2)NC(=O)[C@H](CC(=O)O)NC(=O)CNC1=O [technetium-99m labelled] | γ-counting | female athymic nude mice, U-87 MG xenograft, blood | intravenous, 2 h | tissue uptake | 0.19 ± 0.02 %ID/g |
| CCN1C(=CC=CC=CC2=[N+](CCCCCC(=O)NCCCC[C@H](NC(=O)CN3CCN(CC(=O)O)CCN(CC(=O)O)CCN(CC(=O)O)CC3)C(=O)NCC(=O)NCC(=O)N[C@@H](Cc3ccc(O)cc3)C(=O)NCC(=O)N[C@H]3CSSC[C@@H]4NC(=O)CNC(=O)[C@H](C)NC(=O)[C@H](CC(C)C)NC(=O)[C@@H]5CSSC[C@@H](C(=O)NCC(N)=O)NC(=O)[C@H](Cc6ccccc6)NC(=O)CNC(=O)[C@H](CC(N)=O)NC(=O)[C@@H]6CCCN6C(=O)CNC(=O)[C@H](CSSC[C@H](NC(=O)[C@H](CO)NC(=O)[C@H]([C@@H](C)O)NC(=O)[C@@H]6CCCN6C(=O)[C@H](C)NC(=O)[C@H](Cc6c[nH]c7ccccc67)NC(=O)[C@H](CC(=O)O)NC(=O)CNC(=O)[C@H](CCCNC(=N)N)NC(=O)CNC(=O)[C@H](CCC(N)=O)NC(=O)[C@@H]6CCCN6C3=O)C(=O)N[C@@H](CO)C(=O)N[C@@H](CCC(N)=O)C(=O)N[C@@H](CC(=O)O)C(=O)N[C@@H](CO)C(=O)N[C@@H](CC(=O)O)C(=O)N5)NC(=O)[C@H](C(C)C)NC4=O)c3ccc4c(S(=O)(=O)[O-])cc(S(=O)(=O)O)cc4c3C2(C)C)C(C)(C)c2c1ccc1c(S(=O)(=O)O)cc(S(=O)(=O)O)cc21 (single isomer, unassigned) [copper-64 labelled] | microPET | female athymic nude mouse, U-87 MG xenograft, tumour | intravenous, 100 µCi, 2 h | tumour uptake | 4.19 ± 0.36 %ID/g |
